Measurements from different studies.
Each numbered part is a random draw from the data of one study; scales do not carry over between parts.

Study 1
Target: RNA binding protein fox-1 homolog 2, RRM domain, GST-SBP tag (RBFOX2, Homo sapiens, UniProt O43251-10, residues 100-194)
Technique: RNA Bind-n-Seq
Form: RNA
Matrix: in vitro
Tested at: 365 nM
Notes: natural RNA segment, single round, ends assumed
Reference: no-protein control
Reading: higher = stronger binding
Construct (chain): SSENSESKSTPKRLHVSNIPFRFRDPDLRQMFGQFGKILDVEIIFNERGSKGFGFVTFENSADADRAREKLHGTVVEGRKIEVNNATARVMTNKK
`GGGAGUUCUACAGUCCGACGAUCAGGCUGCUGCCUUCCCAGAGCCUGGAGGCAGCUCUGCUGUUCAGCCCCAAACUUUGUUUACACUGCUAGGGAAGGAGGAGCUCCGGCAAGGGAAUAACUAGGCUGGUUAAUGGAAUUCUCGGGUGCCAA` — result for “RBNS enrichment (R)”: 0.394.
`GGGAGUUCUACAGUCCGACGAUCCAGAAACCCCACUUCCAUUGUAUUGUCUGACACAUGCUCUCAAUAUAUAAUAAAUGGGAAAUGUCGAUUUUCAAUAAUAGACUUAUAUGCAGGCUGUCGUUCCGGUUAUGUGGAAUUCUCGGGUGCCAA` — result for “RBNS enrichment (R)”: 0.318.
`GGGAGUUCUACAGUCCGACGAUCAGCUUCCUGGUACUCACAGCAUCUCAGAACAGGGUGCUUCCCUCUGCCUCCAGCUCCAAGGACUCUGCCUACAGGAGUGUGCCUUGGGGCUGAAAGGCCAUGCAAACACAUGGAAUUCUCGGGUGCCAA`: “RBNS enrichment (R)” 0.273.
`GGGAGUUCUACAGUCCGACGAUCAUUACAAAUAGAUCUAGGAACUGGGUCAUAGUUGGCUGGUGGGACAUUAUAGUUGUAAAGCUCAAGUUAAAAUAAAAAUAAAAGUGAUAGGACUAAGUCACCUAUCCAAGUGGAAUUCUCGGGUGCCAA` — result for “RBNS enrichment (R)”: 0.415.
`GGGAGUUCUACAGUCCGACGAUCCCUUUUUCCUACCUCUCUCUGUUCGGUUUAGAAACUGAUCAUAAGUCAUAUGUUGUUUGGCAUUCUGCCUAACCCAGUCUCCCUUCCCAGAGUCAUGGACCUCUCUGUUGUGGAAUUCUCGGGUGCCAA`: “RBNS enrichment (R)” 0.909.
For `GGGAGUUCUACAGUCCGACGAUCAAAUCAUGCCAGCUAAUCAUGUCAAGUUCACUGCCUGUCAGAUUGUUGAUAUAUACCUUCUGUAAAUAACUUUUUUUGAGAAGGAAAUAAAAUCAGCUGGAACUGAACCCUGGAAUUCUCGGGUGCCAA`, “RBNS enrichment (R)” read 0.213.
`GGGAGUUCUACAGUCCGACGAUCUAGGAAGAUUUGGGCAUAUAUGCUCUCUAUUGGUUCCUUCCAUAUUAAACAUACCUGUGUUUUGAGAAGUGUCCUUCCCACUUUGGGCUUUCAGAAGGAAUACUUGGUUCUGGAAUUCUCGGGUGCCAA` — result for “RBNS enrichment (R)”: 0.243.
For `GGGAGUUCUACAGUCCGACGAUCCCUGCCCCAUCCCCAGGGCCGCCAGGCUUGCUCCGUUUGCUUUGAGUUUUUAGACCCCAGAGGGAGAUGAGCUUUUCCAAGCUGUGUCUGGGCCAGAGCCUCUCCUUGCCUGGAAUUCUCGGGUGCCAA`, “RBNS enrichment (R)” read 0.762.

Study 2
Target: Ras GTPase-activating protein-binding protein 1, full length (G3BP1, Homo sapiens, UniProt Q13283)
Sequence of UniProt Q13283 (whole entry, looked up): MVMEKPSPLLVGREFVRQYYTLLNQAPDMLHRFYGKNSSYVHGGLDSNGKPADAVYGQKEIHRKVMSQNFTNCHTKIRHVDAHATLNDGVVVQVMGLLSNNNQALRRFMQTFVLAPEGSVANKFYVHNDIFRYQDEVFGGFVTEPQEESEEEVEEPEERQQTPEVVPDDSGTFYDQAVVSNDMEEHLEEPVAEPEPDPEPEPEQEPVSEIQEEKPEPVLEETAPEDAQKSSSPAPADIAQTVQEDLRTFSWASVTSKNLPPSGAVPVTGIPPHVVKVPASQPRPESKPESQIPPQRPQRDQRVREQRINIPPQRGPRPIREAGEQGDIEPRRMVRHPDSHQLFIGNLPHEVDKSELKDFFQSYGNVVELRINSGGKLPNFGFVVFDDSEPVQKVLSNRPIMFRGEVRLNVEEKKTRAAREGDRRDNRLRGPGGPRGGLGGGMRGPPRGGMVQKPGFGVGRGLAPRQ
Technique: RNA Bind-n-Seq
Form: RNA
Matrix: in vitro
Tested at: 200 nM
Notes: whole 134-nt RNA, ends assumed
Together with: 150 mM KCl
Reference: input library
Reading: higher = stronger binding
For `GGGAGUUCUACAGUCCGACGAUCUUUGCUGUUGUUAACCAUCAAGGGACCUUGGAGAGUGGCCACUACACCAGCUUUAUCCGGCAGCACAAAGACCAGUGGUUCAAGUGUGACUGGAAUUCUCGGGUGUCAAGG`, the log2 enrichment was -1.03.
`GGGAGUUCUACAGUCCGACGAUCCAAGUCCUGUGCUACACAUCGUAUGUACCGAAUCGGGUUUGGGUUUGGGAAAGGGAAAGUAUUAUGUUACGCCGUUCGGAUCUGCACUUCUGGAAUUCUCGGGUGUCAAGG` has a log2 enrichment of 0.668.
With `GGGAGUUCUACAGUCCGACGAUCCUCAAGUCCUGUGCUACACAUCGUAUGUACCGAAUCGGGUUGGUUGGGGUUGGAAAGUAUUAUGUUACGCCGUUCGGAUCUGCACUUCCAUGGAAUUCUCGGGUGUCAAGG` the log2 enrichment was 0.136.
For `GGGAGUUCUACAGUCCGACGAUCUCCUGUGCUACACAUCGUAUGUACCGAAUCGGCCCCCCGGGGCCCCCCGGGGCCCCCCGGAAAGUAUUAUGUUACGCCGUUCGGAUCUGCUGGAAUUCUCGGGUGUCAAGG`, the log2 enrichment was -0.635.
`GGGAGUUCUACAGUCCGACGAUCCAAGUCCUGUGCUACACAUCGUAUGUACCGAAUCGGUGGAAAAAAAGGAAAAAGGAAAGUAUUAUGUUACGCCGUUCGGAUCUGCACUUCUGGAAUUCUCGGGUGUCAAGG` has a log2 enrichment of -0.687.
The log2 enrichment of `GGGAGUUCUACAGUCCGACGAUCGUCCUGUGCUACACAUCGUAUGUACCGAAUCGGGGAAAAAGGAAAAAGGGGAAAAAGGGAAAGUAUUAUGUUACGCCGUUCGGAUCUGCAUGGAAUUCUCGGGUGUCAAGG` is reported as -0.0899.
The log2 enrichment of `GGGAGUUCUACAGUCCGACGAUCGCAGGAAGUAAAAACAAAUGGAAAUGCUUCGGAUAGUGGCAGGGCUGGGGGUUGCUAAGGAAAGGGUGGGAUGGGAGUGGGUAAAGAGUUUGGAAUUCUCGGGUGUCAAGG` is reported as 0.977.
The log2 enrichment of `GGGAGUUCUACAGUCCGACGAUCUGGGAGGUGGAUUUUGUUUAUUUUUUUAGCUCAUUUCCAGGGGUGGGAAUUUUUUUUUAAUAUGUGUCAUGAAUAAGGUUGUUUUUGAAAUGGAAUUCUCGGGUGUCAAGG` is reported as 0.42.
The log2 enrichment of `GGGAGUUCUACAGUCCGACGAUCACCAUGCAGGUGGGCAUCUUUGGGAAGUGGGGCAAGGGGGGGAUAGGGAGGCGGGUAACACUUUGGGAACAGGUGGUCCCAGGUCGUUUCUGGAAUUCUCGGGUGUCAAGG` is reported as 1.11.

Study 3
Target: Centromere-binding protein 1, full length, His-tagged (CBF1, Saccharomyces cerevisiae, UniProt P17106, residues 1-351)
Sequence of UniProt P17106 (whole entry, looked up): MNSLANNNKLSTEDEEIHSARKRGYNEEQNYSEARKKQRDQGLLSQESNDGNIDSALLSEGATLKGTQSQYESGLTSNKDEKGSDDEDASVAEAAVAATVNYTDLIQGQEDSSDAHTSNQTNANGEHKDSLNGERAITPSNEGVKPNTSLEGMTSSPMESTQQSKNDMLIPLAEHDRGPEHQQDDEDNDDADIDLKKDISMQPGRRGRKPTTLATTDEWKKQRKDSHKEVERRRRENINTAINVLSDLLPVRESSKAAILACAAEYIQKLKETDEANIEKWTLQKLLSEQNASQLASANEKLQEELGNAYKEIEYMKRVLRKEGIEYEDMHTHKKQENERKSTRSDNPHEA
Technique: competition protein-binding microarray
Form: double-stranded DNA, one strand shown
Matrix: in vitro
Tested at: 2 µM
Notes: whole 60-bp probe, lowest competitor level
Together with: Pho4 competitor, 0.05 µM
Reading: higher = stronger binding
The fluorescence intensity of `AAGACCGTATGGGAACACGTGGAGGATTAGGCTCGCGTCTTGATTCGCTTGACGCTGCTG` is reported as 905 a.u.
With `AGTAAAAGACGAAAGCACGTTAACAATGGAACACTCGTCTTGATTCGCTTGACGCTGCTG` the fluorescence intensity was 89.2 a.u.
`TGCGCAACAACTTGTCACTTCACTTTATGTCTAGAAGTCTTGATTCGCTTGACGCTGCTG` has a fluorescence intensity of 73.2 a.u.
`TCCGGACCCACCGATTGCGTGATGGCCTGTACAAGGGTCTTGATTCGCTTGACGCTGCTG` has a fluorescence intensity of 77 a.u.
`ACAGGACTTCCAGGACACGTTTCTGGATTCATCCCTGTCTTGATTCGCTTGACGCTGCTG` has a fluorescence intensity of 103 a.u.
For `TGTGCGTTATGCTTCCATGTGACGCTACATCTATTGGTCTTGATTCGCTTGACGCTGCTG`, the fluorescence intensity was 414 a.u.
With `CCAGTACGATTCCGTCACGTGACTCGCGATCAACTAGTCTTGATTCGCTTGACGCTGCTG` the fluorescence intensity was 25600 a.u.
The fluorescence intensity of `CATACCCAACCTTGTGCCGTGGGTGAAGATATTTGTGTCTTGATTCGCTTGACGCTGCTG` is reported as 68.6 a.u.
`CTTCTGTAAATTTGTAATGTGGGTGGACGCGCCCCGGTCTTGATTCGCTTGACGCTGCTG` has a fluorescence intensity of 79.1 a.u.
`CGTCGGCCCAACTTGATCATGCAATTAGCAAGCAACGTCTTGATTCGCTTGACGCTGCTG` has a fluorescence intensity of 69.9 a.u.
For `CGGGGTTAAGTTTGAGCCGTGGGTGGCTTGCAGCAGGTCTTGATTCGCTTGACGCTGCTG`, the fluorescence intensity was 55.5 a.u.
`AAATTACTAAGTTTTCACGTGCCTTACCCCGTATGAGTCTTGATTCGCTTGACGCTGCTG` has a fluorescence intensity of 1180 a.u.
With `CTAACGAAGGTTTTTCACGTGGTTTACAAGCCAAGTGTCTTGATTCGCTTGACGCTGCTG` the fluorescence intensity was 1230 a.u.
The fluorescence intensity of `TATTCCATCTTTTCCCTCGTGTTGACAATAGAGTCAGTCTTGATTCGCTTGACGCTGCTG` is reported as 123 a.u.
For `GACCGTCTCTCCCAACACGTGCCAGAGCTTGTTGATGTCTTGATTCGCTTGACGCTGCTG`, the fluorescence intensity was 1490 a.u.
`TAAATAGTTTTTATATGTTTTTAGTAAAAGAAGAAAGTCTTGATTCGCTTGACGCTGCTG` gave a fluorescence intensity of 91.2 a.u.
With `CTTTCCCGATCTTGTTGAGTGGGTGTAGCACATTTGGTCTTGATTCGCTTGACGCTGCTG` the fluorescence intensity was 79.1 a.u.
`TGCGCAACAACTTTTCACGTGGCTTTATGTCTAGAAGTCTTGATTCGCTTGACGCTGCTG` gave a fluorescence intensity of 835 a.u.
For `GAAAACCTGGCTTGACTCGTGATGGCTTATTTAACGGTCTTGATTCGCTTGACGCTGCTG`, the fluorescence intensity was 337 a.u.

Study 4
Target: Sal-like protein 4, full length isoform B (SALL4, Homo sapiens, UniProt Q9UJQ4-2, residues 1-616)
Technique: universal PBM
Form: double-stranded DNA, one strand shown
Matrix: in vitro
Tested at: not given
Notes: 8-mer, flanks averaged, mean of replicates
Reading: higher = stronger binding
Target sequence (chain): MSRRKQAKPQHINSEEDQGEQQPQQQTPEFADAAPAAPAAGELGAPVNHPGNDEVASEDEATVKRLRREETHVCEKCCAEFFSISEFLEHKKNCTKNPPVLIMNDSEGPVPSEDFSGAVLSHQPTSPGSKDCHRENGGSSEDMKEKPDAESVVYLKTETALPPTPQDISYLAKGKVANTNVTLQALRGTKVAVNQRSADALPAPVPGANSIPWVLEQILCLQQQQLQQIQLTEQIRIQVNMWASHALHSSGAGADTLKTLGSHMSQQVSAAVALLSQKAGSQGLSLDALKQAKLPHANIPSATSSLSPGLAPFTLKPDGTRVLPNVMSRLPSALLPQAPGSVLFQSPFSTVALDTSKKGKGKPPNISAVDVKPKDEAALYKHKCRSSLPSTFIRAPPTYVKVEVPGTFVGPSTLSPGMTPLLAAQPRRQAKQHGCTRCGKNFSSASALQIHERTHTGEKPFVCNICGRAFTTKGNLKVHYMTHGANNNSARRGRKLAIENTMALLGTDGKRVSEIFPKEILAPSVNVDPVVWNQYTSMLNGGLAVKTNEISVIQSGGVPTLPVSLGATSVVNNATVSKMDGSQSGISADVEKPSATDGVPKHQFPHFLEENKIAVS
`ACTAAATC` gave an E-score of 0.0489.
With `AATGGGAG` the E-score was 0.0153.
`CCGCACTA` gave an E-score of -0.11.
For `AGCACTAT`, the E-score was 0.0721.
`AGACAGCT` gave an E-score of -0.195.
With `ACACAGTA` the E-score was 0.197.
`CGCTCATC` gave an E-score of -0.0938.
With `ACTCACTG` the E-score was -0.0948.
For `AAATACGC`, the E-score was 0.0993.
`CAGAGGGG` has an E-score of -0.373.
The E-score of `CGCATCAA` is reported as 0.0176.
With `ATTACAGA` the E-score was 0.281.
The E-score of `AGCCACAA` is reported as 0.0856.
The E-score of `AGCATGCT` is reported as -0.0599.
For `GGCGACCC`, the E-score was -0.371.
With `AGCCGCTG` the E-score was -0.26.
The E-score of `GTAGATAA` is reported as 0.239.
The E-score of `TATCTTAA` is reported as 0.275.
For `AGAATAAT`, the E-score was 0.304.
For `ACACAGTC`, the E-score was -0.0135.
`AGTGGATA` has an E-score of 0.0284.
The E-score of `GAATTCGA` is reported as -0.0319.
The E-score of `ATTGAGCA` is reported as 0.117.
For `GTGTTAAA`, the E-score was 0.193.
For `AGATGAGA`, the E-score was -0.0509.

For quick reference, copied from above (study 4):
For `ACACAGTC`, the E-score was -0.0135.
The E-score of `GAATTCGA` is reported as -0.0319.
With `ATTACAGA` the E-score was 0.281.
`CGCTCATC` gave an E-score of -0.0938.
For `AGATGAGA`, the E-score was -0.0509.
For `AAATACGC`, the E-score was 0.0993.
The E-score of `ATTGAGCA` is reported as 0.117.
